Measured values collected from several papers.
Each numbered part is a random draw from the data of one study; scales do not carry over between parts. Changes are numbered by the printed parent chain.

Sample 1
Target: Histone acetyltransferase KAT6A, both winged helices, GST fusion (KAT6A, Homo sapiens, UniProt Q92794, residues 1-181)
Method: protein binding microarray
Molecule type: double-stranded DNA, one strand shown
Matrix: in vitro
Tested at: not given
Notes: 8-mer, flanks averaged, mean of 2 arrays, mostly near background
Relative to: not given
Direction: higher = stronger binding
Construct (chain): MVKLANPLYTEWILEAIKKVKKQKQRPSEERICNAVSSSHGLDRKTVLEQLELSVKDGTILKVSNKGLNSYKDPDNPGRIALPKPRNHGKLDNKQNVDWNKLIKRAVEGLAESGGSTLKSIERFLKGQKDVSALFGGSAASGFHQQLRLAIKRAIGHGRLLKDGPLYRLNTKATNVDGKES
| Oligonucleotide | E-score |
| --- | --- |
| GAGCGCGC | 0.392 |
| ATCCTGGA | -0.246 |
| AATCCTCA | -0.273 |
| ACGTGTGG | -0.123 |
| ATTTAACA | -0.153 |
| GATACGAC | 0.0486 |
| ACCGGTCG | 0.155 |
| GGATTTAA | 0.102 |
| AATGGAAC | -0.0579 |
| AATCGGAG | -0.084 |
| AAGGGAGG | -0.187 |
| CGCTGAAA | 0.13 |
| AGTGAAAA | -0.0424 |
| ACAGCAAA | 0.0849 |
| AGGCCGAT | 0.188 |
| AGGAACTC | -0.0511 |
| CCGGCACA | 0.197 |
| CTTTCACC | 0.0266 |
| CGGACGAC | 0.251 |
| ATCCACAA | -0.174 |
| GGTACTTA | -0.0494 |
| AAAAAGTG | -0.0799 |
| ACTGCAGG | -0.159 |
| CTTTTTGA | -0.132 |
| ACGTATAA | 0.141 |

Sample 2
Target: Interferon regulatory factor 7, full length, phosphomimetic (IRF7, Homo sapiens, UniProt Q92985, residues 1-503, S471D/S472D/S475D/S476D/S477D/S483D/S484D/S487D)
Method: protein-binding microarray
Molecule type: double-stranded DNA, one strand shown
Matrix: in vitro
Tested at: 2200 nM top
Notes: 60-bp whole probe
With: salmon DNA 0.4 mg/ml
Relative to: random background probes
Direction: higher = stronger binding
Shared flanks, not repeated: GCCTAGCAC … GTCTTGATTCGCTTGACGCTGCTG
Residues (chain): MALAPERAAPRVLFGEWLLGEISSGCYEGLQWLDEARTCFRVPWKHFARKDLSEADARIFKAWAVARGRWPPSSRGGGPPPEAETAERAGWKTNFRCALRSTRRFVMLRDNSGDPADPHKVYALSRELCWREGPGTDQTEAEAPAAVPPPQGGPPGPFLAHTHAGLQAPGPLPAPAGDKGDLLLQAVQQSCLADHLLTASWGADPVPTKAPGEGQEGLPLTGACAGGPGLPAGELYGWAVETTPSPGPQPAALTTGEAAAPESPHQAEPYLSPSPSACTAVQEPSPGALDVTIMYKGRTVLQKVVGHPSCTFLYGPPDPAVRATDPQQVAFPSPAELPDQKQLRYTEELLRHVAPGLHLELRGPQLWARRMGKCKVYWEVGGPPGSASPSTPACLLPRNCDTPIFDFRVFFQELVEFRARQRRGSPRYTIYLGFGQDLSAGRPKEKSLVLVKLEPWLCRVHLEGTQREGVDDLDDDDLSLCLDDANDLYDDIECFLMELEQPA
| Oligonucleotide | fitted relative affinity |
| --- | --- |
| GTAGGACTGGACTATCGGTTAGTGCTA | -0.44 z-score |
| TTACAACTGAGTTTCGATTAGTGCTAG | 4.33 z-score |
| TTAGGTATCGGTAACGGTTAGTGCTAG | -0.0282 z-score |
| GACGAATTCAGTATCGAGACGTGCTAG | 0.247 z-score |
| TAAGGTATCCTTTTCCTTTAGTGCTAG | 1.5 z-score |
| AGAGCTCTGGCACCTCTAGACGTGCTA | -0.536 z-score |
| GACGGTCTCCTTATGCTGACGTGCTAG | 0.613 z-score |
| TTAGGATTGGGGACTGGGTTAGTGCTA | -0.36 z-score |
| GACGGACTGCTTATCCTAACGTGCTAG | 0.307 z-score |
| CCTTCTCTAACCTCTCTAATAGTGCTA | 1.28 z-score |
| TTAGAACTGTGTCTCGATTAGTGCTAG | 0.0323 z-score |
| TTAGGACTGTGTCTCGGTTAGTGCTAG | 0.187 z-score |
| CTAGGTCTCGGACTGGGTTAGTGCTAG | -0.564 z-score |
| TCATTTTCCTCTGTCATACTGTGCTAG | 3.92 z-score |
| GACGGAATCGGTCTCGGGACGTGCTAG | 0.0789 z-score |
| TTACGTTTCGGTATCGGTTAGTGCTAG | 7.55 z-score |
| GACGCACTGAGTTTCGAGACGTGCTAG | 2.23 z-score |
| TCAGCCCTCCCTGTGGGACTGTGCTAG | -1 z-score |
| GACGGTCTCCTTTTCCTGTCGTGCTAG | 2.47 z-score |

Sample 3
Target: CCND3, cyclin fold, Cln2 fusion (human)
Method: yeast growth competition, sequencing
Matrix: yeast
Notes: weak parent motif
Relative to: not given
Direction: higher = stronger binding
Starting sequence: TICRR docking peptide (human); TKVRRNLFNQELL
| Substitution | normalised enrichment score |
| --- | --- |
| Q10A | 0.06 |
| T1A | 0.17 |
| R4A | 0.109 |
| N9A | 0.139 |
| F8A | 0.032 |
| R5A L7A | -0.121 |
| F8L | 0.762 |
| R5A | 0.177 |
| L7A | 0.135 |
| R5K F8L | 0.489 |

Sample 4
Target: RNA binding protein fox-1 homolog 2, RRM domain, GST-SBP tag (RBFOX2, Homo sapiens, UniProt O43251-10, residues 100-194)
Method: RNA Bind-n-Seq
Molecule type: RNA
Matrix: in vitro
Tested at: 365 nM
Notes: natural RNA segment, single round, ends assumed
Relative to: no-protein control
Direction: higher = stronger binding
| Oligonucleotide | RBNS enrichment (R) |
| --- | --- |
| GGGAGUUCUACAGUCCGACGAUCCGUGAGGAACAUGGUAGGUUCCUCACUUAUCACUGUAGAUGAUUCUAUAUGGACACAACAGUAAGAAGAAUGGGGCCUCGUCCCUGUCGACUUGAAUAUUAUCCCUAUGUUGGAAUUCUCGGGUGCCAA | 0.367 |
| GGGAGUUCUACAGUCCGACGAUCGCCACCUUUGCUUCCCGCUCCUUCUGGACAUUCCAGAGCCCUGCACCAAACCCUUACUUGGUGUCUGCACCUCCUUUCCCUCUCUCCAUCUUCCAAUCCCUGGAAAAGUCUGGAAUUCUCGGGUGCCAA | 0.815 |
| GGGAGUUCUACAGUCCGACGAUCCAGAACUAAAUUGCCGCAGACAGGAGUUAAAGUUUUAUAUUUUCCUGCUCAGUUAUCUAAUGUCUUAGAUCAGUGGUCCCCAAAUUUUGCUACAUAUUAGAAUCAUCUGGUGGAAUUCUCGGGUGCCAA | 0.386 |
| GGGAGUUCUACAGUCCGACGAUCUCAGCUCUGAAAGUCUAGGAAUAGUCUUUGUAACAUCUUAGCAGAUGUGUCCUUGUAUGCUGGUGGAUUCUUCUAGAAAGUAUUUUCUAUCUUGGUUGUAUUUGCUGCCAUGGAAUUCUCGGGUGCCAA | 0.499 |
| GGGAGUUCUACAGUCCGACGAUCAGUCACGUUUGCUUGGCUCUGGUACCAAAUAGUUGGGAUUACCGAAGAGUCCCCUUCCUUGCGUGUCAGCACGGAUGCUGUGACUGCCACCUGCGUCCUCGUCAAGUGCCUGGAAUUCUCGGGUGCCAA | 0.516 |
| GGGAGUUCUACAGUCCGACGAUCCAUCUGCCCAGCACGGCCUGCACUGUGCCCACCCACUUGCUCCACAACGUCCAGUUGGUCCUGCUGCCAAGAGCCCCGUGCAUCCAGGCGGCCAAGCACAAACUGGGGGAUGGAAUUCUCGGGUGCCAA | 1.2 |
| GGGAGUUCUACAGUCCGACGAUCUAACUCCAACAGAUGUAGCCAGCAGCCUGGGCACUUGUGUUAGUGGUGCCGUUUGCUGGCUUCUCCACUAGGGUUUCAGGACAGACUACCUAGGAACUGCCUCAACCUCCUGGAAUUCUCGGGUGCCAA | 2.11 |
| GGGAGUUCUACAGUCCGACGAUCAAGCCAUACUGGGCGGCAGCAGGAGCGACCAACUGAUCGCACACAUGCUUUGUUUGGAUAUGGAGUGAACACAAUUAUGUACCAAAUUUAACUUGGCAAACUUUCUAUUGUGGAAUUCUCGGGUGCCAA | 0.391 |

For quick reference, copied from above (sample 3):
| Substitution | normalised enrichment score |
| --- | --- |
| R4A | 0.109 |
| N9A | 0.139 |
| F8A | 0.032 |
| R5A L7A | -0.121 |
| F8L | 0.762 |
